Experimental data pooled from the literature.
Compare with care: the assays were run in different laboratories. Several values in a cell are separate wells, animals, samples, runs or records.

Structure (SMILES)	cell line	assay	conditions	scale	quantity	value
Cn1ncc2cc(-c3cncc(Cl)c3N3CCC4(CCNC4=O)CC3)ccc21	LS174T	gene expression, microarray, measured: TNFRSF12A (FN14) mRNA	concentration not given, 4 h	relative to: untreated cells	log2 fold change	-1.27
O=C(Nc1nnc2c1c(-c1ccc(Cl)cc1)nc1sc(=Cc3ccco3)c(=O)n12)c1ccccc1 (mixture of isomers)	SNB-75	SRB	10 µM, NCI60 single-dose screen	relative to: untreated	cell growth	50.4%
O=C(C[Se]C(=O)c1cc2ccccc2o1)Nc1cccc(C(F)(F)F)c1	NCI60 renal subpanel	total growth inhibition, inhibitor	five-dose		mean TGI	3350 nM
Cc1ncsc1-c1ccc(C(C)NC(=O)C2CC(O)CN2C(=O)C(NC(=O)CCCCCCCCCCN2CCCC(Nc3ncc(Cl)c(Nc4ccccc4S(=O)(=O)C(C)C)n3)C2)C(C)(C)C)cc1 (stereo not shown)	22Rv1	RNA-seq, measured: ZNF888 mRNA	concentration not given	relative to: DMSO	log2 fold change	-1.14
Cc1ccc(-n2cc(CSc3nc4ccccc4n3Cc3cn(-c4ccc(C)cc4)nn3)nn2)cc1	Caco-2	MTT	500 ppm		viability	9.68%
CN1CCCNC(=O)c2cccc(c2)C(=O)NCCCN(C)CCCNc2cccc3c2C(=O)c2cccc(c2C3=O)NCCC1	SAS	RNA-Seq, measured: MRM1 mRNA	1 µM, 6 h	relative to: untreated cells	log2 fold change	1.39
O=C(NCc1ccc(OC(F)(F)F)cc1)[C@H]1CCCN(c2ncnc3[nH]c(-c4ccccc4)cc23)C1	NCI-H2228	cell growth or viability, MTT	1 µg/mL, 72 h		inhibition	72%
CC(C)c1ccc(N(C)c2ccc3c(c2)OCC[C@H]3CNc2cnccc2C(=O)O)cc1	CHL-1	cell growth or viability, ATP luminescence	7 days		IC50	6.08 nM
Cn1ncc(-c2ccc3c(=O)[nH]nc(CN)c3c2)c1-c1c(F)c(Cl)cc(OC2CC2)c1C#N	NB-4	cell viability, inhibitor, CellTiter-Glo	120 h, baseline-subtracted		IC50	20 nM
[Cl-].[Cl-].[Ru+2].c1ccc(-c2ccccn2)nc1.c1ccc(-c2ccccn2)nc1.c1ccc2cc3nc4c5cccnc5c5ncccc5c4nc3cc2c1	SK-MEL-28	resazurin	normoxia, together with: green light 523 nm	relative to: dark EC50 over light EC50	phototherapeutic index	690
Cc1cc(NC2CCN(C)CC2)ccc1-c1cc2c(N3CCC[C@H](C(=O)Nc4ccc(C#N)cc4)C3)ncnc2[nH]1	NCI-H2228	cell growth or viability, MTT	0.04 µg/mL, 72 h		inhibition	60.7%
CCN(CC)CC(=O)Nc1cccc(-n2cc(-c3ccc4ccc(-c5cn(-c6cccc(NC(=O)CN(CC)CC)c6)nn5)cc4c3)nn2)c1	RCC4	PCR angiogenesis array, measured: PLAU	5 x IC50, 6 h, normoxia	relative to: untreated	fold regulation	-2.8
COc1ccccc1-c1ccncc1C(=O)Nc1nnc(OCc2ccc(Cl)cc2)s1	PEO1 (BRCA2-mutant ovarian cancer)		1.00 µM, together with: olaparib 0 µM		colony survival	44.1% and 54.8%
CN(C)c1ccc(-n2cc(COC(=O)[C@@]3(C)C=C(C(=O)OC(C)(C)C)C(=O)CC3)nn2)cc1	HeLa	quantitative western blot	concentration not given, 30 (unit not given), together with: EGF		pRSK/tubulin ratio	0.0767
COc1ccc(-c2cc3c(N4CCC[C@H](C(=O)NCc5ccc(OC(F)(F)F)cc5)C4)ncnc3[nH]2)cn1	NCI-H2228	cell growth or viability, MTT	5 µg/mL, 72 h		inhibition	77.9%
CNS(=O)(=O)Nc1nccc(Cc2c(C)c3ccc(Oc4ncccc4F)cc3oc2=O)c1F	SW480	cell viability	7 days		IC50	15.9 nM
Cc1cc(NC2CCN(C)CC2)ccc1-c1cc2c(N3CCC[C@H](C(=O)Nc4cccc(Cl)c4)C3)ncnc2[nH]1	NCI-H2228	cell growth or viability, MTT	1 µg/mL, 72 h		inhibition	75.8%
CCCC(=O)N1CCN(c2ccc(NC(=O)c3ccc([N+](=O)[O-])o3)cc2Cl)CC1	LDR	silenced CMV-GFP reporter derepression, qHTS			efficacy	68%
[BH3-][P+]1(c2ccccc2)CCCCC1	SW480	annexin V/PI flow cytometry	IC50, 72 h		early apoptotic cells	2.7%

Some of these lines once more:
Structure (SMILES)	cell line	assay	conditions	scale	quantity	value
Cn1ncc2cc(-c3cncc(Cl)c3N3CCC4(CCNC4=O)CC3)ccc21	LS174T	gene expression, microarray, measured: TNFRSF12A (FN14) mRNA	concentration not given, 4 h	relative to: untreated cells	log2 fold change	-1.27
O=C(Nc1nnc2c1c(-c1ccc(Cl)cc1)nc1sc(=Cc3ccco3)c(=O)n12)c1ccccc1 (mixture of isomers)	SNB-75	SRB	10 µM, NCI60 single-dose screen	relative to: untreated	cell growth	50.4%
